Assay results from different studies.
Numbered parts are unrelated; each lists some results of a single study.

Study 1
Target: Histone acetyltransferase KAT6A, winged helix 2, GST fusion (KAT6A, Homo sapiens, UniProt Q92794, residues 85-181)
Technique: protein binding microarray
Molecule type: double-stranded DNA, one strand shown
Matrix: in vitro
Tested at: not given
Setting: 8-mer, flanks averaged, mean of 2 arrays, mostly near background
Reference: not given
Direction: higher = stronger binding
Residues (chain): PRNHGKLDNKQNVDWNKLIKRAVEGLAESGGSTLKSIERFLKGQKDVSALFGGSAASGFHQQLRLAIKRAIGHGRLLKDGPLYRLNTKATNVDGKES
The E-score of `AGTTATGC` is reported as 0.0484.
For `AGATCAGC`, the E-score was 0.186.
`AGATCTCA` gave an E-score of -0.0937.
`AATCACAC` gave an E-score of 0.134.
`AAGTTAAG` has an E-score of -0.278.
`CCTCAGAA` has an E-score of -0.0118.

Study 2
Target: RNA binding protein fox-1 homolog 2, RRM domain, GST-SBP tag (RBFOX2, Homo sapiens, UniProt O43251-10, residues 100-194)
Technique: RNA Bind-n-Seq
Molecule type: RNA
Matrix: in vitro
Tested at: 365 nM
Setting: natural RNA segment, single round, ends assumed
Reference: no-protein control
Direction: higher = stronger binding
Constant ends, left off below: GGGAGUUCUACAGUCCGACGAUC … UGGAAUUCUCGGGUGCCAA
Target sequence (chain): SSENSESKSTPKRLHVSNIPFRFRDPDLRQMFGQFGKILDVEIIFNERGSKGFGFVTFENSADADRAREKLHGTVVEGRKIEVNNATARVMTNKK
`UUAGAAGCAAAUAGUGUGAUUUUCAAGACUUCAAAUACAAAUUUAGUUUAAGUGUUUGAACAACUAUAUGCACUUACGGUUGUGUGUUUAAAAUGUCUCUCUCACCCCCU` — result for “RBNS enrichment (R)”: 0.443.
Under “RBNS enrichment (R)”, `AAGUGACAUGAUGUGGCCAAAAAUCCAAACUGUGCAGUUGCGUUGUGACAAACAUGCAAUGUGCUGUAAAAACUCAAUACAGUUCAAAUAAAAUCUCUAUAUUAGUGCUG` is recorded as 0.3.
Under “RBNS enrichment (R)”, `GUUUUGUAAUGCCCGCCCCUUGCCUCGAUAUUGCCAGUUUCUUGUGCAAUAAACAAUCAGCAGCUGUGGGUGGUGUUGUUGUGGAUGUUUACAAAGCCACAGUCCUCCAG` is recorded as 1.25.
Under “RBNS enrichment (R)”, `CUUGUCAGACCAUCAAUCUCUUGGGGUGAUUAAUCAAAUUACCCACCCAAGGCUUCUAGAAGGAGCUUCCUGCAAUGGAAGGAAGGAGAAGCUCUGAAGCCCAUGUAUGG` is recorded as 0.566.
Under “RBNS enrichment (R)”, `AUGGCUUCAGGAGACUUCAGUUUUUUGUUUAGCUACAUGAUUGAAUGCAUAAUAAAUGCUUUGUGCUUCUGACUAUCAAUACCUAAAGAAAGUGCAUCAGUGAAGAGAUG` is recorded as 0.246.
For `UUUGGUUGUUUGUGCAAUAUUAUAUAUUUUAAAUUAUAAUGCAUCUCCCCAGAGUAUUUUGUAGCUGGGAAAAGAAAAAAAAAGUAAAGAAAAAAUUCUAACAGCUGUUA`, “RBNS enrichment (R)” read 2.67.
`UGUGUAGGAAAUAAUUUAAUUACAAGUCCAGGAAUGGUCUGCUCUACUCAUGGGUGGAGGAGACCAGUGCCGACCCCGUGAGAGCUGAAGGUGAUGCUGAGGUCCCUUGU` — result for “RBNS enrichment (R)”: 0.318.

Study 3
Target: Interferon regulatory factor 7, full length, phosphomimetic (IRF7, Homo sapiens, UniProt Q92985, residues 1-503, S471D/S472D/S475D/S476D/S477D/S483D/S484D/S487D)
Technique: protein-binding microarray
Molecule type: double-stranded DNA, one strand shown
Matrix: in vitro
Tested at: 2200 nM top
Setting: 60-bp whole probe
Added: salmon DNA 0.4 mg/ml
Reference: random background probes
Direction: higher = stronger binding
Constant ends, left off below: GCCTAGCAC … GTCTTGATTCGCTTGACGCTGCTG
Target sequence (chain): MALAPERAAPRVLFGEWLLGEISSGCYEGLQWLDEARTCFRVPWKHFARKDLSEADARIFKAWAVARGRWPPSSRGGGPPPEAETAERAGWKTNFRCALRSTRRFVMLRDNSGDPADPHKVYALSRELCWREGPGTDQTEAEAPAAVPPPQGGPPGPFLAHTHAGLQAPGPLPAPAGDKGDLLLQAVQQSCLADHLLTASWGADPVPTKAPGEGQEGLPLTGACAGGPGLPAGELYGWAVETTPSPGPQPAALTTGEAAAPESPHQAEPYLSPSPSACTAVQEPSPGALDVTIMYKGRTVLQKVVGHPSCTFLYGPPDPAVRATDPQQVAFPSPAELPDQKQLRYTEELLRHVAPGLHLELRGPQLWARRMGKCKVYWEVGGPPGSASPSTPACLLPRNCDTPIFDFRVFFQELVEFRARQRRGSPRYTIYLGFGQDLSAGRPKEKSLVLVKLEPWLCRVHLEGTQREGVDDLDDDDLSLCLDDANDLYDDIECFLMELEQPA
For `TTAGGTATCCTAATGCTTTAGTGCTAG`, “fitted relative affinity” read 0.236 z-score.
For `CAGATGGAATTAAGAAGATGGTGCTAG`, “fitted relative affinity” read -0.775 z-score.
`TTAGAACTGGGGACTGTATTAGTGCTA`: “fitted relative affinity” -0.253 z-score.
Under “fitted relative affinity”, `TTCATTATTGTCTTCCCCATGTGCTAG` is recorded as 1.86 z-score.
`GACGGTTTCGGACCGGGGACGTGCTAG` — result for “fitted relative affinity”: 2.38 z-score.
Under “fitted relative affinity”, `TTAGATTTCAGTTTCGATGAGTGCTAG` is recorded as 3.82 z-score.

Further values, each from its own experiment
For `PhoQ, residues 284 288 289 292 302 303 ALSMDL`, the fold induction was 7.13 (PhoP, residues 12 14 15 18 19 SEGLL (Escherichia coli, UniProt P23836); Sort-seq, item: YFP reporter; E. coli; PhoQ-PhoP variant library, added: 10 µM Mg2+; reference: high Mg2+ state, higher = stronger signaling).
